Results from different studies.
Protocols differ between the studies behind these lines. Numbers after ± are the reported error.

SMILES	tested on	assay	system	conditions	scale	endpoint	value
CO[C@H]1C[C@@H]2CC[C@@H](C)[C@@](O)(O2)C(=O)C(=O)N2CCCC[C@H]2C(=O)O[C@H]([C@H](C)C[C@@H]2CC[C@@H](OC(=O)NCCOCCOCCOCCOCCOCCOCCOCCOCCC(=O)N3CCc4cc(Cn5nc(-c6ccc7oc(N)nc7c6)c6c(N)ncnc65)ccc4C3)[C@H](OC)C2)C[C@@H](O)[C@H](C)/C=C(\C)[C@@H](O)[C@@H](OC)C(=O)[C@H](C)C[C@H](C)/C=C/C=C/C=C/1C	–	–	patients with advanced solid tumours	intravenous, 8 mg weekly, any grade	–	maculopapular rash incidence	25%
CC(C)=CC1C(C(=O)OC(C#N)c2cccc(Oc3ccccc3)c2)C1(C)C (centres unmarked)	–	IVIVE scaling	human adult	–	–	hepatic intrinsic clearance	9710 L/h/kg liver
O=C1Nc2cc3[nH]nc(-c4ccncc4)c3cc2CN1Cc1ccccc1	–	CTCAE v4.03	advanced solid tumour patients	intravenous, 1.8 mg/kg, schedules 1/2	–	patients with dizziness	0%
O=C(Oc1ccc(I)cc1)[c-]1cccc1.[Fe+2].c1cc[cH-]c1	–	cyclic voltammetry	methanol/DMEM 1:1 with TBAPF6	Pt disk electrode, Ag/AgCl reference, together with: scan rate 100 mV/s	–	oxidation potential	589 mV
Oc1c(Cl)cc2c(c1Cl)Oc1cc(Cl)c(Cl)cc1O2	–	ultrafiltration	cow milk whey	500 nM nominal in whole milk	–	final permeate concentration	47.3 nM
CC(C)C[C@H](NC(=O)[C@H](CCCCN)NC(=O)OCC1c2ccccc2-c2ccccc21)C(=O)N[C@H](C(=O)N[C@@H](Cc1ccccc1)C(=O)N[C@@H](Cc1ccccc1)C(=O)N[C@@H](CCCCN)C(=O)NCC(=O)N[C@@H](Cc1ccccc1)C(=O)N[C@@H](C)C(=O)N[C@@H](Cc1c[nH]c2ccccc12)C(=O)N[C@@H](CC(N)=O)C(=O)N[C@H](C(=O)N[C@H]1CSSC[C@@H](C(=O)N[C@@H](Cc2c[nH]cn2)C(=O)N[C@@H](CCCNC(=N)N)C(=O)N[C@@H](CCCNC(=N)N)C(=O)N[C@@H](C)C(=O)N[C@@H](CC(N)=O)C(N)=O)NC(=O)[C@H](C(C)C)NC(=O)[C@H](CCCNC(=N)N)NC(=O)[C@H](C(C)C)NC(=O)CNC(=O)[C@H](CC(N)=O)NC(=O)[C@H](CCCNC(=N)N)NC(=O)[C@H](Cc2ccc(O)cc2)NC(=O)[C@H](C(C)C)NC1=O)C(C)C)C(C)C	–	–	ICR mice, blood	intraperitoneal, 5 mg/kg, day 5	–	mean corpuscular haemoglobin	13.3 ± 0.29 pg
COc1ncnn2ccc(-c3cnc4nc(C)n(Cc5nnc([C@@H](C)F)o5)c4c3)c12	–	–	human patients	oral, dose not given	–	incidence of taste disorder (all grades)	14.3%
COc1cc2c(Oc3ccc4[nH]c(C)cc4c3F)ccnc2cc1OCC1(N)CC1	–	–	paediatric recurrent refractory sarcoma	12 mg	–	grade 1 or 2 Hematochezia	9.1%
CN1CC[C@@H](c2c(O)cc(O)c3c(=O)cc(-c4ccc(C(F)(F)F)cc4Cl)oc23)[C@@H]1CO	–	–	human, relapsed/refractory hematologic malignancies	up to 200 mg	–	tolerability	not toxic
CC(=O)c1c(C)c2cnc(Nc3ccc(C4CCN(CCS(C)(=O)=O)CC4)cn3)nc2n(C2CCCC2)c1=O	–	–	human, plasma	oral, 75 mg, day 1 single dose	–	Tmax	1.67 h
COc1ccc(Cl)cc1NC(=O)CSc1nc2ccccc2nc1N1CCCCC1	Vero-E6	CellTiter-Glo ATP	–	concentration not given, 72 h, first round 5-point	reference: DMSO 0%, hyamine -100%, more negative, more toxic	cytotoxicity efficacy	0%
C[C@]1(CO)Cc2ncn(-c3ccc(C#N)c(Cl)c3)c2C(=O)O1	–	investigator-assessed	human	40 mg multiple doses, fasted	–	subjects with drug-related TEAEs	11.1%
Cc1cc(C)cc(-c2ccc(CN3CCCC3C(=O)NCc3cccc(F)c3)cc2)c1 (centres unmarked)	Vero-E6	CellTiter-Glo ATP	–	concentration not given, 72 h, first round 5-point	reference: DMSO 0%, hyamine -100%, more negative, more toxic	cytotoxicity efficacy	-11.2%
O=C(c1ccc(F)c(F)c1Nc1ccc(I)cc1F)N1CC(O)([C@@H]2CCCCN2)C1	–	–	human	oral, 0.6 mg/kg	–	duration of chorioretinopathy DLT	50 days

A few entries again:
SMILES	tested on	assay	system	conditions	scale	endpoint	value
Cc1cc(C)cc(-c2ccc(CN3CCCC3C(=O)NCc3cccc(F)c3)cc2)c1 (centres unmarked)	Vero-E6	CellTiter-Glo ATP	–	concentration not given, 72 h, first round 5-point	reference: DMSO 0%, hyamine -100%, more negative, more toxic	cytotoxicity efficacy	-11.2%
COc1cc2c(Oc3ccc4[nH]c(C)cc4c3F)ccnc2cc1OCC1(N)CC1	–	–	paediatric recurrent refractory sarcoma	12 mg	–	grade 1 or 2 Hematochezia	9.1%
